# Measurements gathered from unrelated publications.
# Each numbered part is a random draw from the data of one study; scales do not carry over between parts. Values joined by “and” are separate records of one study, mostly repeats; a detail may differ.

# Sample 1 — observed: binding; technique: NanoBRET; cells: HEK293 (live); reading: lower = stronger binding
# SMILES: CN1CCC[C@H]1COc1nc2c(c(N3CCN(C(=O)C4CC4)[C@@H](CC#N)C3)n1)CCN(c1cccc3cccc(Cl)c13)C2
# Target: GTPase HRas (HRAS, Homo sapiens, UniProt P01112)
concentration,target engagement
1.046 µM,112% and 92.3% and 101%
0.5686 µM,94.2% and 115% and 97.4%
1.523 µM,114% and 92.7% and 94.9%
0.09151 µM,102% and 107% and 94.3%

# Sample 2 — cell line: MDA-MB-231; observed: cell viability; technique: CellCounting-Lite; concentration: 8.23 nM; temperature: 37 °C; reading: higher = more viable cells
SMILES,luminescence signal
CCn1cnc2c(NCc3nc4cc(Cl)c(Cl)cc4[nH]3)nc(N3CCN(Cc4ccncc4)CC3)nc21,376000 a.u. and 400000 a.u. and 446000 a.u.
CC(=O)N1CCN(c2nc(NCc3nc4cc(Cl)c(Cl)cc4[nH]3)c3ncn(-c4cnn(C)c4)c3n2)CC1,589000 a.u. and 501000 a.u. and 503000 a.u.
CCn1cnc2c(NCc3nc4cc(Cl)c(Cl)cc4[nH]3)nc(N3CCN(C(=O)[C@H](C)NC(C)=O)CC3)nc21,464000 a.u. and 481000 a.u. and 471000 a.u.
CCn1cnc2c(NCc3nc4cc(Cl)c(Cl)cc4[nH]3)nc(N3CCN(c4ccccn4)CC3)nc21,673000 a.u. and 608000 a.u. and 600000 a.u.
CC(=O)N1CCN(c2nc(NCc3nc4cc(Cl)c(Cl)cc4[nH]3)c3ncn(C(C)C)c3n2)CC1,487000 a.u. and 509000 a.u. and 522000 a.u.
CCn1cnc2c(NCc3nc4ccc(F)c(F)c4[nH]3)nc(N3CCn4ncnc4C3)nc21,508000 a.u. and 523000 a.u. and 475000 a.u.
CCn1cnc2c(NCc3nc4cc(Cl)c(Cl)cc4[nH]3)nc(N3CCC(NC(C)=O)CC3)nc21,468000 a.u. and 479000 a.u. and 532000 a.u.
CCCCOc1nc(NCc2nc3cc(Cl)c(Cl)cc3[nH]2)c2ncn(CC)c2n1,627000 a.u. and 710000 a.u. and 490000 a.u.
CCn1cnc2c(NCc3nc4cc(Cl)c(Cl)cc4[nH]3)nc(N3CCN(C(=O)c4ccccn4)CC3)nc21,302000 a.u. and 313000 a.u. and 347000 a.u.
CCn1cnc2c(NCc3nc4cc(Cl)c(Cl)cc4[nH]3)nc(N3CCN(C(=O)c4ccncc4)CC3)nc21,427000 a.u. and 393000 a.u. and 325000 a.u.
CCn1cnc2c(NCc3nc4cc(Cl)c(Cl)cc4[nH]3)nc(N3CCN(C(=O)CNC(C)=O)CC3)nc21,512000 a.u. and 473000 a.u. and 499000 a.u.
CCn1cnc2c(NCc3nc4cc(Cl)c(Cl)cc4[nH]3)nc(N3CCn4ncnc4C3)nc21,473000 a.u. and 371000 a.u. and 490000 a.u.
CC(=O)N1CCN(c2nc(NCc3nc4cc(Cl)c(Cl)cc4[nH]3)c3ncn(C)c3n2)CC1,321000 a.u. and 393000 a.u. and 508000 a.u.
CCn1cnc2c(NCc3nc4cc(Cl)c(Cl)cc4[nH]3)nc(N3CCN(S(C)(=O)=O)CC3)nc21,449000 a.u. and 387000 a.u. and 440000 a.u.
CCn1cnc2c(NCc3nc4cc(Cl)c(Cl)cc4[nH]3)nc(N3CCN(C(C)=O)CC3)nc21,399000 a.u. and 388000 a.u. and 437000 a.u.
CCn1cnc2c(NCc3nc4cc(F)c(F)cc4[nH]3)nc(N3CCn4ncnc4C3)nc21,491000 a.u. and 517000 a.u. and 489000 a.u.
CCn1cnc2c(NCc3nc4cc(Cl)c(Cl)cc4[nH]3)nc(N3CCN(C(=O)c4ccccc4)CC3)nc21,526000 a.u. and 443000 a.u. and 463000 a.u.
CCn1cnc2c(NCc3nc4cc(Cl)c(Cl)cc4[nH]3)nc(N3CCN(C(=O)c4cccnc4)CC3)nc21,279000 a.u. and 288000 a.u. and 326000 a.u.

# Sample 3 — observed: enzyme activity; action: inhibitor; technique: Ub-TR-FRET; matrix: HECT domain; concentration: 0.005081 µM; reading: higher = more chain formation
# Target: E3 ubiquitin-protein ligase NEDD4, HECT domain (Homo sapiens, UniProt P46934)
# Construct (P46934 938-1319, limits assumed): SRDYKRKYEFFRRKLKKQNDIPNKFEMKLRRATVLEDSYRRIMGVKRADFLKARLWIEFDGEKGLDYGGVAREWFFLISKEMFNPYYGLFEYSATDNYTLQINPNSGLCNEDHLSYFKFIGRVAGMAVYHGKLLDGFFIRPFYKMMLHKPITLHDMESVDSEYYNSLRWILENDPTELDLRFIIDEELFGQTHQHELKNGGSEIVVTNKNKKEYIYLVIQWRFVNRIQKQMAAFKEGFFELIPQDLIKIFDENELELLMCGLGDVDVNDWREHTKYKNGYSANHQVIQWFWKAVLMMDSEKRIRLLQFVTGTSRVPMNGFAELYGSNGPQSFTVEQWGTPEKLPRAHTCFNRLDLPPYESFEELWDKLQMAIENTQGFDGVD
Structure (SMILES),ubiquitin chain formation AUC
CN(C)C(=O)/C=C/CNCCCN1c2ccccc2CCc2ccc(Cl)cc21.Cl,139000 a.u.
CCOC(=O)/C=C/CNCCCCN1c2cc(Cl)ccc2C(=O)N(C)c2ccccc21.O=C(O)/C=C\C(=O)O,91600 a.u. and 97000 a.u. and 92400 a.u.
CNC(=O)/C=C/CNCCCCN1c2ccccc2CCc2ccc(Cl)cc21.Cl,86400 a.u. and 87300 a.u. and 70900 a.u. and 82900 a.u. and 68800 a.u. and 71200 a.u.
CCOC(=O)/C=C/CNCCCCN1c2ccccc2COc2ccc(Cl)cc21.O=C(O)/C=C\C(=O)O,93400 a.u. and 92500 a.u. and 93700 a.u.
CNC(=O)/C=C/CNCCCN1c2ccccc2CCc2ccc(Cl)cc21.Cl,132000 a.u. and 130000 a.u.
CCOC(=O)/C=C/CNCCCCN1c2cc(Cl)ccc2CCc2cnn(C)c21.O=C(O)/C=C\C(=O)O,68500 a.u. and 68800 a.u. and 83300 a.u. and 73300 a.u. and 69800 a.u. and 72200 a.u.
CCOC(=O)/C=C/CNCCCCN1c2cc(Cl)ccc2COc2ccccc21.O=C(O)/C=C\C(=O)O,92500 a.u. and 93300 a.u. and 92100 a.u.
CCOC(=O)/C=C/CN(CCCCN1c2ccccc2CCc2ccc(Cl)cc21)C(C)C.O=C(O)/C=C\C(=O)O,84700 a.u. and 86400 a.u. and 81900 a.u. and 84100 a.u. and 84900 a.u. and 83600 a.u.
CN(C)C/C=C/C(=O)NCCCN1c2ccccc2CCc2ccc(Cl)cc21,129000 a.u. and 132000 a.u. and 130000 a.u.
CCOC(=O)/C=C/CN(CC)CCCCN1c2ccccc2CCc2ccc(Cl)cc21.O=C(O)/C=C\C(=O)O,102000 a.u. and 103000 a.u. and 92100 a.u. and 94100 a.u. and 92800 a.u.
COC(=O)CCCNCCCN1c2ccccc2CCc2ccc(Cl)cc21.COC(=O)CCCNCCCN1c2ccccc2CCc2ccc(Cl)cc21.O=C(O)/C=C/C(=O)O,131000 a.u. and 130000 a.u. and 129000 a.u.
CCONC(=O)/C=C/CNCCCCN1c2ccccc2CCc2ccc(Cl)cc21.O=C(O)/C=C\C(=O)O,37800 a.u. and 35200 a.u. and 26400 a.u. and 27600 a.u. and 27100 a.u. and 38400 a.u.

# Sample 4
# SMILES: Cc1ncc(-c2cc3c(C#N)c(-c4c(C)ccc(O)c4C)cnc3[nH]2)cn1
# Target: Membrane-associated tyrosine- and threonine-specific cdc2-inhibitory kinase (PKMYT1, Homo sapiens, UniProt Q99640)
# Residues (Q99640 1-499): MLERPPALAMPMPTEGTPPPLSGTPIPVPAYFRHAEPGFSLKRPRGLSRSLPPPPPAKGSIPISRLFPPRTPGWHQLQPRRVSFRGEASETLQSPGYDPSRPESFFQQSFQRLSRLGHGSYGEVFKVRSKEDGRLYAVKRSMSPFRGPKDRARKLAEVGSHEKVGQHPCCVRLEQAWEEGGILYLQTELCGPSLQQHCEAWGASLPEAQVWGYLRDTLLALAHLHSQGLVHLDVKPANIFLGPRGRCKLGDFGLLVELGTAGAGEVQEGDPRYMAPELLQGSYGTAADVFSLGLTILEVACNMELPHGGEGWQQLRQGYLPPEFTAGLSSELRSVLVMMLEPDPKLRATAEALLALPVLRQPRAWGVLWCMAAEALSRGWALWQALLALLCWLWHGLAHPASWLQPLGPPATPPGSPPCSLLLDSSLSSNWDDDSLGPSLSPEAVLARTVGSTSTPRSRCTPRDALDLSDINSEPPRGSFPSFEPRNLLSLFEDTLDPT
observed,action,technique,concentration,inhibition [%]
cell-free assay,,TR-FRET,41.15 nM,105
,,,0.00051 µM,4.73
cell-free assay,,TR-FRET,1.111 µM,102
cell-free assay,,TR-FRET,13.72 nM,96.6
cell-free assay,,TR-FRET,0.3704 µM,99.7
cell-free assay,,TR-FRET,3.333 µM,102
,,,0.04115 µM,99.7
cell-free assay,inhibitor,TR-FRET,510 pM,4.44
,,,0.1235 µM,99.5
,,,1.111 µM,100

# For quick reference, copied from above (sample 1):
concentration,target engagement
1.046 µM,112% and 92.3% and 101%
0.09151 µM,102% and 107% and 94.3%
0.5686 µM,94.2% and 115% and 97.4%
